Measurements gathered from unrelated publications.
Numbered parts are unrelated; each lists some results of a single study. Substitutions count along the parent as printed.

Sample 1
Target: CCNE1, cyclin fold, Cln2 fusion (human)
Technique: yeast growth competition, sequencing
Matrix: yeast
Setting: strong parent motif
Baseline: not given
Direction: higher = stronger binding
Endpoint: normalised enrichment score
Starting sequence: E2F1 docking peptide (human); PPVKRRLDFETDH; partner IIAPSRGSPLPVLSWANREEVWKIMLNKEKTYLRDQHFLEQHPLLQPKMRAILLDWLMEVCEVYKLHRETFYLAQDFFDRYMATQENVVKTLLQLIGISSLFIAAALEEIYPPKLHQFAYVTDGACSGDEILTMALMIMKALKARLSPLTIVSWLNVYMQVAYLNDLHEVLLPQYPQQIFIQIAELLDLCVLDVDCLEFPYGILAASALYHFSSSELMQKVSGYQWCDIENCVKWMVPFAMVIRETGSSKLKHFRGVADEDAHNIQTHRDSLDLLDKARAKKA
P2G: 6.74
P2Q: 6.19
K4H: 2.91
E10A: 6.28
F9V: 0.547
T11Q: 6.06
V3S: 2.5
R5K: 3.25
L7Y: 0.0505
P2M: 5.82
D12K: 6.01
L7N: -0.392
L7G: -0.121
R5I: 0.723
D12H: 6.61
R6H: 3.07
E10L: 6.03

Sample 2
Target: Histone acetyltransferase KAT6A, both winged helices, GST fusion (KAT6A, Homo sapiens, UniProt Q92794, residues 1-181)
Technique: protein binding microarray
Molecule type: double-stranded DNA, one strand shown
Matrix: in vitro
Tested at: not given
Setting: 8-mer, flanks averaged, mean of 2 arrays, mostly near background
Baseline: not given
Direction: higher = stronger binding
Endpoint: E-score
Residues (chain): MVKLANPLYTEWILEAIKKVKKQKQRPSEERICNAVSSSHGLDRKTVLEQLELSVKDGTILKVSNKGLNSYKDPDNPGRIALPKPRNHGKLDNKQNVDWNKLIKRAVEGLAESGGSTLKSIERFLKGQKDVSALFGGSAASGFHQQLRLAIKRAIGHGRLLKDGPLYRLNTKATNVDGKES
GCGCCCCC: 0.178
CCGCGAAC: 0.264
ACCGAATA: -0.174
CTACCGCC: 0.192
CTTGATTA: -0.15
TGACACCA: -0.151
AGATGTCG: 0.0593
CATGAGCA: -0.105
GTCGTAAA: 0.0291
GATATAAA: -0.113
ATGCTAAC: -0.0598
GCGACTAC: -0.00204
CAAGAAAC: -0.0799
TAAAAGAA: 0.0282
CTCGAGAA: -0.0619
CGAGTCGC: 0.101
CGTCCACG: 0.195
AGCCACCA: -0.147
AATTCCAA: -0.171

Sample 3
Target: Sal-like protein 4, full length isoform A (SALL4, Homo sapiens, UniProt Q9UJQ4, residues 1-1053)
Chain of UniProt Q9UJQ4 (whole entry, looked up): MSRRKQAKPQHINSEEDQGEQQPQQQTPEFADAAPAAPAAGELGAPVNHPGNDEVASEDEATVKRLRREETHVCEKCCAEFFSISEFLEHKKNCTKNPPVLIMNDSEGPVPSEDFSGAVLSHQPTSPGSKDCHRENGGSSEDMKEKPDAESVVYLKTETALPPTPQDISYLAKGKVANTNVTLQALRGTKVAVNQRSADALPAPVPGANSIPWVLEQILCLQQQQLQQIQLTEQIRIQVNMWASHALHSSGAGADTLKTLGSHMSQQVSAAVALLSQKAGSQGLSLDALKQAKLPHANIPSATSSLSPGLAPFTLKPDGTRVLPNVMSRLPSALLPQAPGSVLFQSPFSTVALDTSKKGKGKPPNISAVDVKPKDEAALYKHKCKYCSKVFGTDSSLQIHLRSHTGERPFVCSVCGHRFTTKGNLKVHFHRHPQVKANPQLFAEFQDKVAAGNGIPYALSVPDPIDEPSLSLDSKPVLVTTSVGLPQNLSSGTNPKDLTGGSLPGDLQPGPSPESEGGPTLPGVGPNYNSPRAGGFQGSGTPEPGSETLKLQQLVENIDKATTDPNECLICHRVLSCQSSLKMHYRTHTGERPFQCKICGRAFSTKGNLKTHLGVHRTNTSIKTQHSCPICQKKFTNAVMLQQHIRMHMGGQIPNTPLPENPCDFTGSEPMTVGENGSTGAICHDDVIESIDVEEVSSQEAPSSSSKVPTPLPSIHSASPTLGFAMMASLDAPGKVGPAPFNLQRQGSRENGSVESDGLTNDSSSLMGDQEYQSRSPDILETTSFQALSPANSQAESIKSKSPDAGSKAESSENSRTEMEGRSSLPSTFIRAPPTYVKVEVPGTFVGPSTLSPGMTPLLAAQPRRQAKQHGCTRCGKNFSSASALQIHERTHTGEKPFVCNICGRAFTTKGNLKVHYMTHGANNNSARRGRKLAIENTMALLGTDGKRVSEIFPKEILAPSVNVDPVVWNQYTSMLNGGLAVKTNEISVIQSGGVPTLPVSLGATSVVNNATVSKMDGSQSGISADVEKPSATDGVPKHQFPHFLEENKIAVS
Technique: universal PBM
Molecule type: double-stranded DNA, one strand shown
Matrix: in vitro
Tested at: 600 nM
Setting: 8-mer, flanks averaged, mean of replicates
Direction: higher = stronger binding
Endpoint: E-score
ACTCCCGG: -0.259
GAGTGGCA: -0.166
ACTACACC: -0.0268
CCCCTGGA: -0.367
CGAGGGTC: -0.371
AACCGGGA: -0.0408
AAGGCAGA: -0.0333
GACCCCAC: -0.248
CGGACCTC: -0.402
CAACGACA: 0.0156
ACGCAAGG: -0.16
CCTCCTTC: -0.21
TAAATACA: 0.34
ATTAAAGA: 0.318
GTCCGCAA: -0.121
ATGAGTAA: 0.192
AGGAGGAC: -0.215
ACCCAACA: -0.194
AGTAGTAC: 0.0909
CGACCGTC: -0.308
ACCCTTAT: 0.157
GTGGAAAC: -0.014
ACGAACTA: 0.0949
AAGTAGGT: -0.074

Sample 4
Target: ABI1, truncated, D143A, DHFR fusion (Arabidopsis thaliana)
Technique: DHFR PCA, deep sequencing
Matrix: yeast
Setting: methotrexate growth selection, single substitutions
With: (+)-ABA 0.39 µM
Baseline: wild-type fitted maximum
Direction: higher = stronger binding
Endpoint: relative binding score
Starting sequence: PYL1, truncated, DHFR fusion (Arabidopsis thaliana); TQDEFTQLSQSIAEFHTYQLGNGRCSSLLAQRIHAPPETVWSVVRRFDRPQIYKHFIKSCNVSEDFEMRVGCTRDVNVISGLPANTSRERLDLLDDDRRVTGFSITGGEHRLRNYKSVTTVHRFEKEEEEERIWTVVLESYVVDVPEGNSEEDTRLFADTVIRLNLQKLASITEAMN
E14Y: -2.38%
T173F: -17.2%
I105Q: -19.3%
P50N: -9.79%
V76H: -8.89%
C60Q: -10.5%
G21H: 38.8%
I52N: -12%
V137L: -4.08%
T160N: 3.58%
F124W: 52.3%
D65K: 23.2%
I79R: -2.95%
T119Y: -5.55%
F15L: -1.46%
V78C: 38.7%
C72T: 9.83%
D144W: -9.44%
R24G: 0.325%
Y141L: -4.56%
E125A: 55.2%
V142P: -4.57%

Sample 5
Target: Ras GTPase-activating protein-binding protein 1, full length (G3BP1, Homo sapiens, UniProt Q13283)
Chain of UniProt Q13283 (whole entry, looked up): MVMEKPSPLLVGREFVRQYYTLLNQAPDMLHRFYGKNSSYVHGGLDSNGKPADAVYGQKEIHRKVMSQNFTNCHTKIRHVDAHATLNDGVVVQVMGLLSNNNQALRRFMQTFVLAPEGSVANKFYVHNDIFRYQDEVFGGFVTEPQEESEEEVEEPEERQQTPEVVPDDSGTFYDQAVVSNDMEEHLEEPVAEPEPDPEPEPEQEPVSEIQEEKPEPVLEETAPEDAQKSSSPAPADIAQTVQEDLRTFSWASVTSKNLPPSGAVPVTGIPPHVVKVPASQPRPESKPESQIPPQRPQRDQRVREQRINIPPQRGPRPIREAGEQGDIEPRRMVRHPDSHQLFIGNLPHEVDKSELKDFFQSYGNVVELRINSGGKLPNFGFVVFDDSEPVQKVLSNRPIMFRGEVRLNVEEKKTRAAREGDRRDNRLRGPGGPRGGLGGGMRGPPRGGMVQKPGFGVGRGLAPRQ
Technique: RNA Bind-n-Seq
Molecule type: RNA
Matrix: in vitro
Tested at: 200 nM
Setting: whole 134-nt RNA, ends assumed
With: 150 mM LiCl
Baseline: input library
Direction: higher = stronger binding
Endpoint: log2 enrichment
Library: 7-deaza-guanosine replaces G
Shared flanks, not repeated: GGGAGUUCUACAGUCCGACGAUC … UGGAAUUCUCGGGUGUCAAGG
CCUCAAGUCCUGUGCUACACAUCGUAUGUACCGAAUCGGGUGGGUGGGUGGGAAAGUAUUAUGUUACGCCGUUCGGAUCUGCACUUCCAG: 0.287
GUCCUGUGCUACACAUCGUAUGUACCGAAUCGGGCCCCCGGGGCCCCCGGCCCCCGGGAAAGUAUUAUGUUACGCCGUUCGGAUCUGCAC: -1.5
UGGGAGGUGGAUUUUGUUUAUUUUUUUAGCUCAUUUCCCGGGGUGGGAAUUUUUUUUUAAUAUGUGUCAUGAAUAAAGUUGUUUUUGAAA: -0.236
AGUCCUGUGCUACACAUCGUAUGUACCGAAUCAAAUUUAAAUUUAAACCCCCCCAAAAAAGUAUUAUGUUACGCCGUUCGGAUCUGCACU: 1.46
UGUUCACAUUUUAAGGAUGACAAGUCCACUAUAUGUAACACGUAAGAAUGCUAUCCUGGCAGUAGACACAGGGCCAGAAUAAACUGGCAA: -1.6
AGUCCUGUGCUACACAUCGUAUGUACCGAAUCGGGGAGGGGUGGGGUUUUUUUGGGGAAAGUAUUAUGUUACGCCGUUCGGAUCUGCACU: 0.379
CCUGUGCUACACAUCGUAUGUACCGAAUCAAAUUUUUAAAUUUUUUUAAAUUUUUUUAAAAAAGUAUUAUGUUACGCCGUUCGGAUCUGC: -2.38
AAGUCCUGUGCUACACAUCGUAUGUACCGAAUCGGAAAAAAAGGAGGAAAAAAAGGAAAGUAUUAUGUUACGCCGUUCGGAUCUGCACUU: -0.269
CUCAAGUCCUGUGCUACACAUCGUAUGUACCGAAUCGGGGAGGGGAGGAGGGGAAAGUAUUAUGUUACGCCGUUCGGAUCUGCACUUCCA: -0.0617
AGUCCUGUGCUACACAUCGUAUGUACCGAAUCGGGGUGGGGAGGGGUUUUUUUGGGGAAAGUAUUAUGUUACGCCGUUCGGAUCUGCACU: 0.637
AAGUCCUGUGCUACACAUCGUAUGUACCGAAUCGGGGUUUUGGUUUUGGGGUUUUGGAAAGUAUUAUGUUACGCCGUUCGGAUCUGCACU: -0.0715

Sample 6
Target: RNA binding protein fox-1 homolog 2, RRM domain, GST-SBP tag (RBFOX2, Homo sapiens, UniProt O43251-10, residues 100-194)
Technique: RNA Bind-n-Seq
Molecule type: RNA
Matrix: in vitro
Tested at: 365 nM
Setting: natural RNA segment, single round, ends assumed
Baseline: no-protein control
Direction: higher = stronger binding
Endpoint: RBNS enrichment (R)
Shared flanks, not repeated: GGGAGUUCUACAGUCCGACGAUC … UGGAAUUCUCGGGUGCCAA
Construct (chain): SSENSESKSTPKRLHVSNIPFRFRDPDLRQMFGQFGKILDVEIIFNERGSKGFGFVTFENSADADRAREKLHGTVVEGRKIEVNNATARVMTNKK
GGAGUUUUUUUCCUCCACAUUUUGAGAUUUUGUGAUAAAUGGGAUGUGUGCCCACCCCUGACAUCUGUCCAUGUUGUCUAGACUCCACCUGUCCACGGUUCCUUUGUUCU: 0.504
AACCUCUUCAUUCCUAAUUCCUCCAAGGUACUAUUUCAUAGUUGCUCUGAAUUAAGGAUUUCAGGUUUAACUGGUAGUGAAAGACUGCACCUAGCAUCUUCGGGAAGAAA: 0.262
UGGCCUCUGCGGCCAGGAAGCCUGACACUAGGCACCCCCCAGGCGAGAGCUAGUGGGGUGCAGAGGGCCCCAUGCCAGACAGCCCUUGGGGCUCGUUGCACUUUAAGAAA: 0.301
ACCAGUGGCCAGAUUUGGCAUCACCCGCCCCUCUUAGCAUCCACAGGAACUGCAUGCCUGCCUCUACCUUUCCCCACCUGAUACACACAGCUCCUGCUGUGACUGAGGGA: 6.16
CCCAGGCAGCAAGCAAGCUGUGAACAGCUGGCCUGAGCUGUCGCUGUGGCUUGUGGCUCAUGCGCCAUUCCUGGUUGUCUGUUGAAUCUUUCUGGCUGCUGGAAUUGGAG: 2.21
CAGUUUACCUUCAAGUAAUAUUAUCUUUAUUUUUAGGCUAAGCACGUUUGAUUAUUUUGUCUGUCUCCUAUAUAGAUCUGUUUUGUCUAGUGCUAUGAAUGUAACUUAAA: 2.77
ACCAGAGAGCCCUUGGUCCCAGGUCUCUUGAGCUUUUGUGUCAUGUUGCAGCAGAGUGAAGAUGGGGGGUUGGGGGUUAUUUAUUUUGCUUGUCCUUAUCCCUGCUUGGA: 3.31
UGCUUAUUUAGUUUUUGUUUCUACAGGUCAAACAUGAUUGCUUUCUAUAAAAGAAAUGCUUGAGAGGUUGACUAUAAUGGAUAUGUCACAGGUAUAAAACAGUUGUUUUC: 0.426
AUUGAGACCGUUUUCCACCAAGUUAGCCUCAUUUGUUCAGUAACACAUCUUACCGAGGAAAGGAGGCAAGGAAGUGCCCUUUUGUGUCUCCUCAUUGUUCACAGCCUGUU: 0.342
CAGCUCAGCACUCAGUCAGUGGUAACUUGUGCCCAGCCCUGUGCUAGGCGCUGACAUUAACAGGAGCAACCAGGGCCCAAUUCCUGGCCUUGGAGCUCAAAUCUUUCCUU: 0.258
CAGAGGUGGCACAGGACAGUAAAGGAGAUGCUGUGCUGGCCUUCAGCCUGGACAGGGUCUCUGCUGACUGCCAGGGGCGGGGGCUCUGCAUAGCCAGGAUGACGGCUUUC: 1.38
UAACAGUGUAGGUAUUGGAACCCUUGUAGCCCUUUUGGGGGUCAAACAGGUAUAUGGAUUUAUCAAGGAGGGCAUUGGCUGCCCCUGGGGUAUUGCCACGCUGUUGUCUU: 0.373
